Results pooled from the literature.
Parts stem from different laboratories: compare values within a part only. Positions count from the first letter of the parent shown.

Sample 1
Target: Interferon regulatory factor 5, full length, phosphomimetic (IRF5, Homo sapiens, UniProt Q13568-2, residues 1-514, K96S/S451D/S453D/S456D/S462D)
Technique: protein-binding microarray
Molecule type: double-stranded DNA, one strand shown
Medium: in vitro
Tested at: 250 nM
Notes: 60-bp whole probe
Together with: salmon DNA 0.4 mg/ml
Baseline: random background probes
Reading: higher = stronger binding
Shared flanks, not repeated: GCCTAGCAC … GTCTTGATTCGCTTGACGCTGCTG
| Strand | log fluorescence [z-score] |
| --- | --- |
| TTAGGTTTCGTTATCGGTTAGTGCTAG | 9.63 |
| GACGGACAGGGGTATCGGGACGTGCTA | 0.1 |
| TTAGGTCTCGGTATCGTTTAGTGCTAG | 2.08 |
| TTAGGTATCCTTCTCCCTTAGTGCTAG | 0.456 |
| GACGGACTGGGGTTTTGGGACGTGCTA | -0.533 |
| TCAATACTCGTTTACATACTGTGCTAG | 0.587 |
| TTGAGTCTTCTCCTCTAGGTGTGCTAG | -0.227 |
| TTAGAATTCGGGACTGGATTAGTGCTA | 0.0956 |
| TTTGGTTTCGGACTGGGTTAGTGCTAG | 7.91 |
| TCATATATTTGCTTCAGACTGTGCTAG | 0.692 |
| GCTGGTCACTCTCTGGGCTGGTGCTAG | -0.614 |

Sample 2
Target: Ras GTPase-activating protein-binding protein 1, full length (G3BP1, Homo sapiens, UniProt Q13283)
UniProt Q13283, sequence (whole entry, looked up): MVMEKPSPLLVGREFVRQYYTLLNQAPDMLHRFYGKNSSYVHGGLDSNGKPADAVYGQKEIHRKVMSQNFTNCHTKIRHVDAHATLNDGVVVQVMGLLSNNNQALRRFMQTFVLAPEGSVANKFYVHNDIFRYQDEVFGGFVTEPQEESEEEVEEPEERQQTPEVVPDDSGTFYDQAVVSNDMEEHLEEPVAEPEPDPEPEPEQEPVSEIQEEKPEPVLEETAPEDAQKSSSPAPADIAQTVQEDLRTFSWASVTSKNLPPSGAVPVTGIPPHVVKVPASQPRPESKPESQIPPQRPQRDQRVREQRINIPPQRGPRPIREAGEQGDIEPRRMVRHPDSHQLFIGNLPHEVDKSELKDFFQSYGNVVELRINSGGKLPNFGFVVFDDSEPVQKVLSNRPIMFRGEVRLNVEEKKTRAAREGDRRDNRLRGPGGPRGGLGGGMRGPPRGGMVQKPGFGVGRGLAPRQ
Technique: RNA Bind-n-Seq
Molecule type: RNA
Medium: in vitro
Tested at: 200 nM
Notes: whole 134-nt RNA, ends assumed
Together with: 150 mM LiCl
Baseline: input library
Reading: higher = stronger binding
Each molecule: 7-deaza-guanosine replaces G
Shared flanks, not repeated: GGGAGUUCUACAGUCCGACGAUC … UGGAAUUCUCGGGUGUCAAGG
| Strand | log2 enrichment |
| --- | --- |
| GAGAGCGAGGUGGCUUCAAUAAGCCUGGUGGUAAGUUUUUGAGUAUUACCAUAGAUAGUGUUUAAAAAAAAAUGCAGUCAGUUUUUAGAA | -0.0442 |
| UGGGAGGUGGAUUUUGUUUAUUUUUUUAGCUCAUUUCCAGGGGUGGGAAUUUUUUUUUAAUACGUGUCAUGAAUAAAGUUGUUUUUGAAA | -0.35 |
| GUCCUGUGCUACACAUCGUAUGUACCGAAUCGGGUUUUUGGGUUUUUGGGAAAAAGGGAAAGUAUUAUGUUACGCCGUUCGGAUCUGCAC | -0.651 |
| AAGUCCUGUGCUACACAUCGUAUGUACCGAAUCGGGGUUUGGGUUUGGGUUUGGGGAAAGUAUUAUGUUACGCCGUUCGGAUCUGCACUU | -0.205 |
| GUCAAGUGCUUCUGCUCCUGAUGUGGAUGACCCAGAGGCAUUCCCAGCUCUGGCUUAACUGGAUGCCAUAAGACAACCCUGGUUCCUUUG | -0.957 |
| UUUAGGUGUUAGACGGUACCGACAACCAGUAUUUGGGCCUGCAGAUUGGACAGCCCCAGGAUGAAGAUGAGGAAGCCACAGGUAUUCUUC | -2.72 |
| UUACCGACACCGUAGAACAGAGCAAGAGGAGGAUGAAGAGCUAUUAACAGAAAGCUCCAAAGCAACCAAUGUUUGCACUCGAUUUGAAGA | -0.151 |
| CCUCAAGUCCUGUGCUACACAUCGUAUGUACCGAAUCGGGAGGGAGGGGAGGAAAGUAUUAUGUUACGCCGUUCGGAUCUGCACUUCCAG | -0.233 |
| GCAGGAAGUAAUAACAAAUGGAAAUGCUUCGGAUAGUGGCAGGGGUGGGGGUUGCUAAGGAAAGGGUGGGAUGGGAGUGGGUAAAGAGUU | -0.0725 |
| CACAGACAACGCGCACCCACACAGACACAGAGGGAAGGGGUUGGGAUGGGGACAGGGUGCACAGCAGGGCGGGGUAGGACCCCAGCCCCU | -0.622 |
| CAAGUCCUGUGCUACACAUCGUAUGUACCGAAUCGGGGAAAGGGGAAAGGAAAGGGAAAGUAUUAUGUUACGCCGUUCGGAUCUGCACUU | -0.478 |

Sample 3
Target: RNA binding protein fox-1 homolog 2, RRM domain, GST-SBP tag (RBFOX2, Homo sapiens, UniProt O43251-10, residues 100-194)
Technique: RNA Bind-n-Seq
Molecule type: RNA
Medium: in vitro
Tested at: 365 nM
Notes: natural RNA segment, single round, ends assumed
Baseline: no-protein control
Reading: higher = stronger binding
Shared flanks, not repeated: GGGAGUUCUACAGUCCGACGAUC … UGGAAUUCUCGGGUGCCAA
Residues (chain): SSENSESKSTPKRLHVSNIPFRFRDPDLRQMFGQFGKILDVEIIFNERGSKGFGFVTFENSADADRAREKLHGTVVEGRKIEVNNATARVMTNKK
| Strand | RBNS enrichment (R) |
| --- | --- |
| UUUUUUUGCUUGUUUUGGUUCUGUUCUCACUUUUAAAGGAUGCUGAGAUGGUAAUAUGACUCUCCAUAUUUUGGUACCAAUUCUGAGACUGUAUGAAUUUUCAGGUGGAA | 1.36 |
| AUUCAAGUGUUUCAAAAUUCAAAGCAUUGUAUUCAAAGUUGCAGUGAAGGCAUCAACUUAUGUAAAAACUCAGAAGGAAGGCUCCUCUGAUAAAAACACAGCUCCUUUAU | 0.485 |
| UUAUAGCACCAUGAGAGCUACAGUACUCUUGAAUUCUAGAGAUAGGUUUUGGUAAAUGUGAACUUGUUUCUAGGUUAACAGUCAAGGAGAGGGACAUGAAUCGUGCAUGU | 6.47 |
| CAUGUUGAUUCUUGUAAGCACUGGACUGUCUUCAUCAAGUAUUUCCCUACAGAACUCCUCAAGAAAACAGAGAUCAUUUGGCUAGAGAUUGUCUGAGUGACUCCAAGCUA | 0.393 |
| UGCGGGUGAUCCUCAAGGCCAUGCUGCUUUCUGAGUUGUUCUUGUUGCUUUGUUCAUAAUGUGGUUACAGUCAUAUUACACUGACCCUGAGGGUAUUAUGUAACCCUUCA | 0.451 |
| GUGGGUCUUGGGAUGGGCUGGAACAGGGUUCCUGCCUGAGUAGGUGGAACUGGCAACCUUGAAGGGUGAUUCCCCCCCACCCCCAGAGGAUCAGCUGCCUGUGGUUGGGA | 1.06 |
| AGUCUGUGGCUGUUGGGCCUUUAGUUCCACAAUCCCCAUGGCUUAUUAUCCAGUCGGUCCCAUCUAUCCACCUGGCUCCACAGUGCUGGUGGAAGGAGGGUAUGAUGCAG | 0.221 |
| CUCGCACAGGGCAGGAUGCUGAACGGGCUACAUUAAAAACAAACCUCUUUCUCUCUCUAUUUAUAAAUGAGAACUGUUGGACGACACCUUUGACAUAUCAGCCAAUACCA | 0.404 |
| AAAAAAAAAAGAAAAAAAAGAAAAACUGAUGGUGAAACCUACAGGUUUAAGGGCUUAAAUCUCAAACUUUGUUAGGAGUAACAGGAGCGUGCUGAGCGGGCAAGCAAUAA | 0.682 |
| UCUUUGGAUGCUCACGGGUUCUGUUCCAGUGCUAUUUUCUAUGAAUAUAGCAGCAUCGUUUCCUUUUUCAGUGAAAUUUCAACCAUAAGUAGAAAAGAAUUGUUUACUAU | 0.301 |
| UAAAGGUAGAGAUUAAACUGUAUAGACAGCAUAGGGAUGAAAGGAACCAAGCGUUUCUGUGGGAUUGAGACUGGUACGUGUACGAUGAACCUGCUGCUUUGUUUUCUGAG | 1.12 |
| CCUCUGGCACAUUUCCUCUCCUGCCUCUGCUUGAAAAGGAAACCAGAAGCCGAACAAGUGAGAGUAAUGUAUAAUUCUCUCAUUUUUUUGUAGGUCUCUAAUAAAGAACU | 0.202 |

Sample 4
Target: CCND1, cyclin fold, Cln2 fusion (human)
Technique: yeast growth competition, sequencing
Medium: yeast
Notes: strong parent motif
Baseline: not given
Reading: higher = stronger binding
Starting sequence: CDC42EP1 docking peptide (human); SLVVGKLSFDSSP
| Variant | normalised enrichment score |
| --- | --- |
| SLVVGKLSFDSSA [P13A] | 0.267 |
| ALVVGKLSFDSSP [S1A] | 0.595 |
| SLVVAKLSFDSSP [G5A] | 0.787 |
| SLAVGKLSFDSSP [V3A] | 0.767 |
| SAVVGKLSFDSSP [L2A] | 0.857 |
| SLVAGKLSFDSSP [V4A] | 0.747 |

Sample 5
Target: ABI1, truncated, D143A, DHFR fusion (Arabidopsis thaliana)
Technique: DHFR PCA, deep sequencing
Medium: yeast
Notes: methotrexate growth selection, single substitutions
Together with: (+)-ABA 0.11 µM
Baseline: wild-type fitted maximum
Reading: higher = stronger binding
Starting sequence: PYL1, truncated, DHFR fusion (Arabidopsis thaliana); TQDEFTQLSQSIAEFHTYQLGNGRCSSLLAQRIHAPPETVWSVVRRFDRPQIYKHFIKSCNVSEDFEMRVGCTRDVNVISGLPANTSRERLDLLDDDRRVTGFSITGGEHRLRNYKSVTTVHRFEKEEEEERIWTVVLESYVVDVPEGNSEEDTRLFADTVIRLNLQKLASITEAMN; partner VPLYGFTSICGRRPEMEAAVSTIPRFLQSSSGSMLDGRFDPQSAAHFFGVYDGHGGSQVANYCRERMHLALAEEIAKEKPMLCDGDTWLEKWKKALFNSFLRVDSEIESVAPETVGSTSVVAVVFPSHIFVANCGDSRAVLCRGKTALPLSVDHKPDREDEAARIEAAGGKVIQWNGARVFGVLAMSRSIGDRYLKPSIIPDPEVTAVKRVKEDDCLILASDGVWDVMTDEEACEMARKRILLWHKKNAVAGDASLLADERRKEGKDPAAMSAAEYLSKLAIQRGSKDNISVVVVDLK
| Variant | relative binding score |
| --- | --- |
| S42D | 17.3% |
| I133H | 26% |
| E125T | 44.7% |
| G23P | -1.02% |
| N61E | 51.2% |
| S11V | 41.8% |
| A30G | 12.8% |
| R155M | 9.62% |
| H110G | 24.9% |
| V44P | -2.41% |
| N22Y | 23.7% |
| N22L | 22.4% |
| T101S | 0.222% |
| T6D | 47.4% |

Repeated from above (sample 4):
| Variant | normalised enrichment score |
| --- | --- |
| SLVVAKLSFDSSP [G5A] | 0.787 |
| SLVVGKLSFDSSA [P13A] | 0.267 |
| ALVVGKLSFDSSP [S1A] | 0.595 |
| SLVAGKLSFDSSP [V4A] | 0.747 |
| SAVVGKLSFDSSP [L2A] | 0.857 |
| SLAVGKLSFDSSP [V3A] | 0.767 |
